Results from different studies.
Lines come from different studies, so protocols differ. ± marks the error that the study gave.

`CC[C@H](C)[C@H](NC(=O)[C@H](CCCNC(=N)N)NC(=O)[C@H](CCCCN)NC(=O)[C@H](Cc1ccc(O)cc1)NC(=O)[C@H](CC(=O)O)NC(=O)[C@H](C)NC(=O)CNC(=O)CCOCCOCCOCCNC(=O)CN1CCN(CC(=O)O)CCN(CC(=O)O)CCN(CC(=O)O)CC1)C(=O)N[C@H](C(=O)N[C@H](C(=O)N[C@@H](CCCCN)C(=O)N[C@H](C(=O)N[C@@H](CC(N)=O)C(N)=O)C(C)C)C(C)C)[C@@H](C)O` [copper-64 labelled] has a tissue uptake of 0.718 ± 0.02 %ID/g (ex vivo gamma counting; C57BL/6J male mice, B16-F10 tumour, spleen; intravenous, 1.85 MBq, 20 min).
`Cc1ccccc1-c1ccc(-c2nc(-c3ccc(CN(C)CCCC(=O)O)c([18F])c3)no2)cc1C(F)(F)F` gave a tissue uptake of 0.06 ± 0.03 %ID/g (Sprague Dawley rats, male, fat; 60 min).
The tissue uptake of `O=C([O-])CNC(=O)CN1CCN(CC(=O)NCC(=O)[O-])CCN(CC(=O)NCC(=O)[O-])CCN(CC(=O)NCC(=O)[O-])CC1.[177Lu+3]` is reported as 0.014 ± 0.006 % injected dose/g (Sprague-Dawley rat, stomach; intravenous (tail vein), dose not given, 2 h).
`CC[C@H](C)[C@H](NC(=O)[C@@H](Cc1c[nH]c2ccccc12)NC(=O)[C@@H]1CCCN1C(=O)[C@H](CCCCN)NC(=O)[C@H](CCCCN)NC(=O)CCNC(=O)CCNC(=O)CN1CCN(CC(=O)O)CCN(CC(=O)O)CCN(CC(=O)O)CC1)C(=O)N[C@@H](C[Si](C)(C)C)C(=O)O` [gallium-68 labelled] gave a tissue uptake of 0.19 ± 0.08 %ID/g (nude mouse HT-29 xenograft, pancreas; 90 min).
With `CN1Cc2cc(Cl)ccc2-n2c(nnc2C2CCN(c3cccc([18F])n3)CC2)C1` the tissue uptake was 3.07 ± 1.38 %ID/g (C57BL/6 mouse male, muscle; intravenous, 3.7 MBq, 30 min).
`CC(C)C[C@@H](NC(=O)[C@@H](CCCNC(=N)N)NC(=O)[C@@H](Cc1c[nH]cn1)NC(=O)[C@@H](Cc1c[nH]c2ccccc12)NC(=O)[C@@H](Cc1c[nH]cn1)NC(=O)[C@@H](Cc1ccccc1)NC(=O)[C@H](NC(=O)[C@@H](Cc1ccc(O)cc1)NC(=O)CNC(=O)CNC(=O)CCOCCOCCOCCNC(=O)CN1CCN(CC(=O)O)CCN(CC(=O)O)CC1)[C@H](C)O)C(=O)N[C@H](CC(N)=O)C(=O)N1CCC[C@@H]1C(=O)O` [gallium-68 labelled] gave a tissue uptake of 0.46 ± 0.25 %ID/g (C57BL/6 mice, male, bone; intravenous, 1.85 MBq, 60 min, with: GP12 blocking).
The tissue uptake of `CCCC[C@H]1C(=O)N(C)[C@@H](CCCC)C(=O)N[C@@H](CCCNC(=O)CN2CCN(CC(=O)O)CCN(CC(=O)O)CCN(CC(=O)O)CC2)C(=O)N[C@H](C(=O)NCC(N)=O)CSCC(=O)N[C@@H](Cc2ccc(O)cc2)C(=O)N(C)[C@@H](C)C(=O)N[C@@H](CC(N)=O)C(=O)N2CCC[C@H]2C(=O)N[C@@H](Cc2c[nH]cn2)C(=O)N[C@@H](CC(C)C)C(=O)N(C)CC(=O)N[C@@H](Cc2c[nH]c3ccccc23)C(=O)N[C@@H](CO)C(=O)N[C@@H](Cc2c[nH]c3ccccc23)C(=O)N1C` [gallium-68 labelled] is reported as 0.37 ± 0.16 %ID/g (NOD/SCID mice with CHO-hPD-L1 xenograft, brain; 120 min post injection).
The tissue uptake of `CC[C@H](C)[C@H](NC(=O)[C@H](CCCCN)NC(=O)CNC(=O)[C@H](CC(C)C)NC(=O)[C@H](Cc1ccccc1)NC(=O)[C@H](CCCCN)NC(=O)[C@H](CO)NC(=O)[C@H](Cc1ccccc1)NC(=O)[C@H](Cc1c[nH]c2ccccc12)NC(=O)[C@H](CCC(N)=O)NC(=O)[C@@H](NC(=O)[C@H](Cc1ccccc1)NC(=O)CCCCCNC(=O)CN1CCN(CC(=O)O)CCN(CC(=O)O)CCN(CC(=O)O)CC1)C(C)C)C(=O)N[C@@H](CCC(=O)O)C(=O)N1CCC[C@H]1C(=O)N[C@H](CC(=O)O)C(=O)N[C@H](C(=O)N[C@@H](CO)C(=O)N[C@@H](CCC(N)=O)C(=O)N[C@H](C(=O)N[C@@H](CCC(N)=O)C(=O)N[C@@H](CC(=O)O)C(=O)N1CCC[C@H]1C(=O)N[C@@H](CC(N)=O)C(=O)N[C@@H](CC(=O)O)C(=O)N[C@@H](CCC(N)=O)C(=O)N[C@@H](Cc1ccc(O)cc1)C(=O)N[C@@H](CCC(=O)O)C(=O)N1CCC[C@H]1C(=O)N[C@@H](Cc1ccccc1)C(=O)O)C(C)C)C(C)C` [copper-64 labelled] is reported as 0.32 ± 0.04 %ID/g (female mice, EMT6 tumour-bearing, muscle; 2 h, uncleavable control tracer, checkpoint inhibitor-treated).
For `O=C(CN1CCN(CC(=O)NCP(=O)([O-])[O-])CCN(CC(=O)NCP(=O)([O-])[O-])CCN(CC(=O)NCP(=O)([O-])[O-])CC1)NCP(=O)([O-])[O-].[Gd+3]`, the tissue uptake was 0.062 ± 0.036 % injected dose/g (Sprague-Dawley rat, blood; intravenous (tail vein), dose not given, 2 h).
`COc1ccccc1-c1n[nH]c2nc(NC3CCN(C(=O)Cc4ccc(F)cc4F)CC3)ncc12` has a relative abundance of 0.91 (bead binding, competition bead pull-down, refers to: LINJ.06.0910; Leishmania donovani axenic amastigote extract; 10 µM; reference: vehicle).
`O=C1NC2(CC2)COc2ncc(F)cc2[C@H]2COCCN2c2ccn3ncc1c3n2` — result for “organ-to-body weight ratio”: 0.033 ± 0.004% (Sprague-Dawley rat, female, ovaries; oral, 2.5 mg/kg/day, 4 weeks, end of treatment).
With `CSCC[C@H](NC(=O)CNC(=O)[C@H](CCCCN)NC(=O)[C@H](CC(C)C)NC(=O)[C@@H]1CCCN1C(=O)[C@H](CO)NC(=O)[C@H](Cc1c[nH]cn1)NC(=O)[C@H](Cc1c[nH]c2ccccc12)NC(=O)[C@H](CCCNC(=N)N)NC(=O)[C@H](CC(C)C)NC(=O)[C@H](CCCNC(=N)N)NC(=O)[C@H](Cc1c[nH]c2ccccc12)NC(=O)[C@H](CS)NC(=O)CCCCCNC(=O)CN1CCN(CC(=O)O)CCN(CC(=O)O)CCN(CC(=O)O)CC1)C(=O)O` [copper-64 labelled] the tissue uptake was 1.33 %ID/g (ex vivo biodistribution; male C57BL/6J mice, testis; intravenous, 1.85 MBq, 0.5 h, B16-F10 tumour-bearing).
For `C[C@H](O)[C@@H](NC(=O)[C@H]1CCCN1C(=O)[C@@H](CCCCN)NC(=O)[C@@H](CO)NC(=O)[C@@H](Cc1ccc(O)cc1)NC(=O)[C@@H](CC(N)=O)NC(=O)CCOCCOCCOCCNC(=O)CN1CCN(CC(=O)O)CCN(CC(=O)O)CCN(CC(=O)O)CC1)C(=O)N[C@H](CC(=O)O)C(=O)N[C@H](CCCNC(=N)N)C(=O)N[C@H](CCC(N)=O)C(=O)N[C@H](Cc1ccc(O)cc1)C(=O)N[C@H](Cc1c[nH]cn1)C(=O)N[C@H](Cc1ccccc1)C(N)=O` [copper-64 labelled], the tissue uptake was 0.89 ± 0.08 %ID/g (ex vivo gamma counting; C57BL/6J mouse, normal, small intestine; intravenous, 1.85 MBq, 60 min).

For quick reference, copied from above:
`CC(C)C[C@@H](NC(=O)[C@@H](CCCNC(=N)N)NC(=O)[C@@H](Cc1c[nH]cn1)NC(=O)[C@@H](Cc1c[nH]c2ccccc12)NC(=O)[C@@H](Cc1c[nH]cn1)NC(=O)[C@@H](Cc1ccccc1)NC(=O)[C@H](NC(=O)[C@@H](Cc1ccc(O)cc1)NC(=O)CNC(=O)CNC(=O)CCOCCOCCOCCNC(=O)CN1CCN(CC(=O)O)CCN(CC(=O)O)CC1)[C@H](C)O)C(=O)N[C@H](CC(N)=O)C(=O)N1CCC[C@@H]1C(=O)O` [gallium-68 labelled] gave a tissue uptake of 0.46 ± 0.25 %ID/g (C57BL/6 mice, male, bone; intravenous, 1.85 MBq, 60 min, with: GP12 blocking).
